Published values collected from several papers.
Each line is one published result; not all experiments were run side by side. Numbers after ± are the reported error.

Substance = C#CCn1cc(/C=N/N2C(=O)CSC2=S)c2cc([N+](=O)[O-])ccc21; organism = Trypanosoma congolense; system = trypomastigotes, IL3000; IC50 = > 59 µM
Substance = CS(=O)(=O)c1ccc(-c2cnc(N)c(-c3ccc(C(F)(F)F)nc3)c2)cc1; organism = Plasmodium cynomolgi; assay = schizont (large EEF) growth; system = primary rhesus hepatocytes; setting = day 4, compound added at 96 h; IC50 = 1 µM
Substance = O=C1CSC(=S)N1/N=C/c1c[nH]c2ccc([N+](=O)[O-])cc12; organism = Leishmania major; assay = parasite growth, resazurin; system = THP-1; setting = 72 h, intracellular, amastigote; IC50 = > 10 µM
Substance = FC(F)(F)Oc1ccc(-c2cnc3cc(Cl)ccc3c2Nc2ccc(C3CN(Cc4ccccc4)CCO3)cc2)cc1 (stereo not shown); organism = Plasmodium falciparum; assay = parasite growth, SYBR Green; system = D6; setting = 72 h, blood stage; IC50 = ≥ 0.25 µM
Substance = C=C1C(=O)O[C@H]2[C@H]1CC/C(C)=C/CC[C@@]1(C)O[C@@H]21; organism = Lucilia cuprina; assay = larval weight gain; system = LS strain, larvae on impregnated cotton wool; setting = 24 h; IC50 = > 1000 µg
Substance = Clc1ccc2c(Nc3ccc(N4CCCCC4)cc3)ccnc2c1; organism = Plasmodium falciparum; assay = parasite growth, SYBR Green; system = D6; setting = 72 h, blood stage; IC50 = 0.197 µM
Substance = O=C(Nc1ccc2c(c1)OCO2)c1ccccc1Sc1ccc([N+](=O)[O-])cc1Cl; organism = Human immunodeficiency virus 1; assay = viral replication; system = MT4; setting = 7 days; IC50 = 10 µM
Substance = O=c1[nH]c2c([N+](=O)[O-])cccc2cc1-c1ccc(CO)cc1; organism = Trypanosoma brucei; assay = parasite growth, resazurin; setting = 74 h, trypomastigote; IC50 = 1.9 µM
Substance = CCN1CCOCC1c1ccc(Nc2c(-c3ccc(OC(F)(F)F)cc3)cnc3cc(Cl)ccc23)cc1 (stereo not shown); organism = Plasmodium falciparum; assay = parasite growth, SYBR Green; system = D6; setting = 72 h, blood stage; IC50 = ≥ 0.25 µM
Substance = COc1ccccc1C(=O)Nc1ccccc1Oc1ccc(OC(C)=O)cc1; organism = Human immunodeficiency virus 1; assay = viral replication; system = MT4; setting = 7 days; IC50 = > 100 µM
Substance = O=C1NC(=S)S/C1=C\c1cn(Cc2ccccc2)c2ccc([N+](=O)[O-])cc12; organism = Leishmania major; assay = parasite growth, resazurin; system = THP-1; setting = 72 h, intracellular, amastigote; IC50 = 0.51 µM
Substance = 5′-deoxy-5′-Pro-DADMe-ImmA; organism = Campylobacter jejuni; assay = colony formation; system = Mueller-Hinton agar; setting = 6 days; IC50 = 3.1 ± 0.7 µM
Substance = O=c1[nH]c2c([N+](=O)[O-])cccc2cc1-c1ccccc1CO; organism = Trypanosoma brucei; assay = parasite growth, resazurin; setting = 74 h, trypomastigote; IC50 = 7.2 µM
Substance = C#CCn1cc(/C=C2\SC(=S)NC2=O)c2cc([N+](=O)[O-])ccc21; organism = Leishmania major; assay = parasite growth, resazurin; system = THP-1; setting = 24 h, intracellular, amastigote; IC50 = > 10 µM
Substance = Nc1ccccc1NC(=O)c1ccc(CNc2nccc(-c3cccnc3)n2)cc1; organism = Lucilia cuprina; assay = larval weight gain; system = LS strain, larvae on impregnated cotton wool; setting = 24 h; IC50 = > 1000 µg
Substance = O=C1NC(=S)S/C1=C\c1c[nH]c2ccc([N+](=O)[O-])cc12; organism = Leishmania major; assay = parasite growth, resazurin; system = THP-1; setting = 72 h, intracellular, amastigote; IC50 = 0.57 µM
Substance = O=C(/C=C/c1cccc(S(=O)(=O)Nc2ccccc2)c1)NO; organism = Lucilia cuprina; assay = larval weight gain; system = LS strain, larvae on impregnated cotton wool; setting = 24 h; IC50 = 740 µg
Substance = COc1ccccc1C(=O)Nc1ccccc1Oc1ccc(N(C)C)cc1; organism = Human immunodeficiency virus 1; assay = viral replication; system = MT4; setting = 7 days; IC50 = 68 µM
Substance = O=[N+]([O-])c1ccc2[nH]ccc2c1; organism = Trypanosoma congolense; system = trypomastigotes, IL3000; IC50 = > 154 µM

Some of these lines once more:
Substance = C#CCn1cc(/C=N/N2C(=O)CSC2=S)c2cc([N+](=O)[O-])ccc21; organism = Trypanosoma congolense; system = trypomastigotes, IL3000; IC50 = > 59 µM
